Published values of several laboratories.
Numbered parts are unrelated; each lists some results of a single study.
Sequence of UniProt P21452 (whole entry, looked up): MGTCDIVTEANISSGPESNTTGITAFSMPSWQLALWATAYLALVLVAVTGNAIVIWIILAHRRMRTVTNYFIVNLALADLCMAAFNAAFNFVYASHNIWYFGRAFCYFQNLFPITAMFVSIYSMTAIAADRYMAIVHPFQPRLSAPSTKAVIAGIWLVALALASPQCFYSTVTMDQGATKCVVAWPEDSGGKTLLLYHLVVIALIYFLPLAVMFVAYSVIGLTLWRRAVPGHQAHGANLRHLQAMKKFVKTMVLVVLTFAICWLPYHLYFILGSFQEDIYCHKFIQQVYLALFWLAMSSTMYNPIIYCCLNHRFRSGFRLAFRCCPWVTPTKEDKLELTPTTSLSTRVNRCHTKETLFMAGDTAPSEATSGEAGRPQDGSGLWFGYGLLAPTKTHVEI
Sequence of UniProt P32241 (whole entry, looked up): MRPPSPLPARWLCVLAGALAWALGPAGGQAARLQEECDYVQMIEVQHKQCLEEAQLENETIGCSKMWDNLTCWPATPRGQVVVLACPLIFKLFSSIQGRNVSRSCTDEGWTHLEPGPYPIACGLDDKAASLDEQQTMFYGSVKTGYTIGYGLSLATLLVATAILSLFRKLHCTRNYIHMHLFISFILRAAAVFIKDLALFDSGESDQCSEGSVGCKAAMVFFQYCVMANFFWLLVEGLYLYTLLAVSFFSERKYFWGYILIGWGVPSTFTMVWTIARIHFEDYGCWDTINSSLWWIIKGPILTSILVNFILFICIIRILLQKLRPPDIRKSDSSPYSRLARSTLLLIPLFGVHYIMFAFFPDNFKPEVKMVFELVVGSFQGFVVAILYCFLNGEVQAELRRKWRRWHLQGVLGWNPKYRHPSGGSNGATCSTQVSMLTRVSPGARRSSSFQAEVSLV
Sequence of UniProt P32248 (whole entry, looked up): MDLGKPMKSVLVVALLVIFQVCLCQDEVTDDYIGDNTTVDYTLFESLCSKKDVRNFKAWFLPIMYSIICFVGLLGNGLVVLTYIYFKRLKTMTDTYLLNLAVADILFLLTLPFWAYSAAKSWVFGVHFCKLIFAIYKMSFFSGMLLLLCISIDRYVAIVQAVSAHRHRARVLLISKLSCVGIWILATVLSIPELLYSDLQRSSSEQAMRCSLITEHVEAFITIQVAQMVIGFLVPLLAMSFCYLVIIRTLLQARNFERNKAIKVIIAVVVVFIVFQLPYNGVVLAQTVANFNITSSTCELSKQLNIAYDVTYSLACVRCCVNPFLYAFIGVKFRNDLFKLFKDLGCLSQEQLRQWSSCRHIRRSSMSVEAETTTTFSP
Sequence of UniProt Q8TDU6 (whole entry, looked up): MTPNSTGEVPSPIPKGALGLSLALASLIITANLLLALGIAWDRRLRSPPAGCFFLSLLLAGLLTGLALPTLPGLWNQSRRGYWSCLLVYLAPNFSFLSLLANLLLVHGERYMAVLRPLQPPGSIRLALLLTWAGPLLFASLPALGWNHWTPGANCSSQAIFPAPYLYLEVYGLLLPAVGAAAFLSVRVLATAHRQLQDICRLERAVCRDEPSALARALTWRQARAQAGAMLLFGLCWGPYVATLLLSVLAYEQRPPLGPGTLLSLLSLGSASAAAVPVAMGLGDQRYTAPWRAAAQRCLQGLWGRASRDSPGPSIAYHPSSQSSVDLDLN
Sequence of UniProt P49685 (whole entry, looked up): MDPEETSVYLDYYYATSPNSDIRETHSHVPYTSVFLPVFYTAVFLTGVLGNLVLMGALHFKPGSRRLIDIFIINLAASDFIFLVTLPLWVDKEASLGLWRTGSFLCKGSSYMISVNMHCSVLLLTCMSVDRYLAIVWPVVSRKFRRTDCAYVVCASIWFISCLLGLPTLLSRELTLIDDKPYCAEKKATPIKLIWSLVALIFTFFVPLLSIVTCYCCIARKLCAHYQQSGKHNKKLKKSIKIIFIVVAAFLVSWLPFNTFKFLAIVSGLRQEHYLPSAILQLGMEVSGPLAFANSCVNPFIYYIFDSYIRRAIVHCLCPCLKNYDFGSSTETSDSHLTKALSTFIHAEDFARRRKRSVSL
Sequence of UniProt Q9UJ42 (whole entry, looked up): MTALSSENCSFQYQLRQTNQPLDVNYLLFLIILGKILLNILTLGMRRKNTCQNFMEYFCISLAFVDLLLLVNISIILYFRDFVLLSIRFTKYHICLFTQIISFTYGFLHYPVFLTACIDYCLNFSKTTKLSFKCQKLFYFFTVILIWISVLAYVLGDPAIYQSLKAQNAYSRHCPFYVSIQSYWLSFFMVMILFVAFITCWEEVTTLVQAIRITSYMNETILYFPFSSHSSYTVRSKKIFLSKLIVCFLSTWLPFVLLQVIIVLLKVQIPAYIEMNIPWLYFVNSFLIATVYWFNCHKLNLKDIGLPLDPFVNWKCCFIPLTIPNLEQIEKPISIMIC
Sequence of UniProt Q9BZJ7 (whole entry, looked up): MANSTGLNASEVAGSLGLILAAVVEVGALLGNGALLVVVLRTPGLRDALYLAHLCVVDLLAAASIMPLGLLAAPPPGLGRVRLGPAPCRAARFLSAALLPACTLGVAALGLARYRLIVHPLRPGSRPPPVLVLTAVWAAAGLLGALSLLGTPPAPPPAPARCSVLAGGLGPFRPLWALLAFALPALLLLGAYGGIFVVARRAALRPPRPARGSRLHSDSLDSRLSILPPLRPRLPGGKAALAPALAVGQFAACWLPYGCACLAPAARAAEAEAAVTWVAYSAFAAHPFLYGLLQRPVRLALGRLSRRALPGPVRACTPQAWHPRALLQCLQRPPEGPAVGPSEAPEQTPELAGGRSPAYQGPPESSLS
Sequence of UniProt P29376 (whole entry, looked up): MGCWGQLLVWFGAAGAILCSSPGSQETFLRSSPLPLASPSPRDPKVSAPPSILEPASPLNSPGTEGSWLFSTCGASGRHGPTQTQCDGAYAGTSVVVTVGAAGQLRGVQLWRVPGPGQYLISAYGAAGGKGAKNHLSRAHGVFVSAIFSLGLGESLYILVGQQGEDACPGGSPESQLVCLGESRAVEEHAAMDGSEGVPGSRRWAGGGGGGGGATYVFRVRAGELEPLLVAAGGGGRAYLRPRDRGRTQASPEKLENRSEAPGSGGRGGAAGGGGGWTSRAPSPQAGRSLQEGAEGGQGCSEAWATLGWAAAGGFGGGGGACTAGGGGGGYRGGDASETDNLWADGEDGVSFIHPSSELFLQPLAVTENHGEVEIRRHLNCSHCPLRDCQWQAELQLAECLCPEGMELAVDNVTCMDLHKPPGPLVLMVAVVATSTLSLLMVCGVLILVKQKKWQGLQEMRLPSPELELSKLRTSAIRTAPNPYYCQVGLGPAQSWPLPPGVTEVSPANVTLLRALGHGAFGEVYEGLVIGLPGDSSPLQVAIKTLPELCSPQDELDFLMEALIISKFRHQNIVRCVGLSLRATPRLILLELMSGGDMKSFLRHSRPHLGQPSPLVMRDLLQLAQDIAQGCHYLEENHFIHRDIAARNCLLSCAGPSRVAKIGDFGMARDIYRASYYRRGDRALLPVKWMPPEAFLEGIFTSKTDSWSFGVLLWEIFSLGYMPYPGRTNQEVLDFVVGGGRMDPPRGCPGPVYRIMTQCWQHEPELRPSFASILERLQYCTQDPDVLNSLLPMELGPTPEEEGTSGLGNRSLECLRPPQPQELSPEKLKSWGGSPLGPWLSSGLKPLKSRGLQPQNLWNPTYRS

Set 1
Structure (SMILES): C=CCc1ccc(O)c(-c2cc(CC=C)ccc2O)c1
Effect on: chloride current
ANO1 del476-501/E659A: Anoctamin-1 (ANO1, Homo sapiens, UniProt Q5XXA6, del476-501/E659A)
Sequence of UniProt Q5XXA6 (whole entry, unmodified, looked up): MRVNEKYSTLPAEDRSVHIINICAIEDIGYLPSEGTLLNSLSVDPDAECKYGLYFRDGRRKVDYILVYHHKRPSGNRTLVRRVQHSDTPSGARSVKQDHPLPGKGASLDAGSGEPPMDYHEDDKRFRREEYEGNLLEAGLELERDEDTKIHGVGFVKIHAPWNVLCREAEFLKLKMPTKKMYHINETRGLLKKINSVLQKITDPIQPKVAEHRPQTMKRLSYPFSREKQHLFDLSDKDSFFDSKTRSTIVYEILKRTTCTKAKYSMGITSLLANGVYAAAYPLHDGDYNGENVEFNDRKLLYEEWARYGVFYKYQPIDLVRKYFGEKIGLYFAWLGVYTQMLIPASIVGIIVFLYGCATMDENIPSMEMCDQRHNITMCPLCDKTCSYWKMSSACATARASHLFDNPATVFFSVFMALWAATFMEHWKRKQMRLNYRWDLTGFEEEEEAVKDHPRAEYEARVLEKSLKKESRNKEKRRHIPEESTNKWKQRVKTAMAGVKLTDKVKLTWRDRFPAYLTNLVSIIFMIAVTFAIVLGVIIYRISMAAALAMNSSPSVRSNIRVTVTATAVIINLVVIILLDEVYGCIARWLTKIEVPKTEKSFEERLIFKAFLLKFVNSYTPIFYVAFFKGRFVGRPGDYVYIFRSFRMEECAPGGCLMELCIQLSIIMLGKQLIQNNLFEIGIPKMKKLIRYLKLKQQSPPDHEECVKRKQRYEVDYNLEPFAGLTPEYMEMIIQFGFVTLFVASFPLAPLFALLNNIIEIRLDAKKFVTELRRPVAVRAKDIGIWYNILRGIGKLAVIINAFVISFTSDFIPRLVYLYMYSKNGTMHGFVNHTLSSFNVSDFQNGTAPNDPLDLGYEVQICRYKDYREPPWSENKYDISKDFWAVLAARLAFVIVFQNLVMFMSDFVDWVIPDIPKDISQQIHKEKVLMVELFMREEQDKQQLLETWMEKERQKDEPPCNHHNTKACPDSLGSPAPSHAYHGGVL
ANO1 del476-501/K629A: Anoctamin-1 (ANO1, Homo sapiens, UniProt Q5XXA6, del476-501/K629A)
| target | test | conditions | normalized current |
| --- | --- | --- | --- |
| ANO1 del476-501/E659A | inside-out patch clamp | 30 µM, membrane voltage 120 mV | 1 |
| ANO1 del476-501/K629A | inside-out patch clamp | 30 µM, membrane voltage -20 mV | -0.117 |
| Anoctamin-1 (ANO1, Homo sapiens, UniProt Q5XXA6, del476-501/E649A/R541A) | inside-out patch clamp | 30 µM, membrane voltage 120 mV | 1 |
| Anoctamin-1 (ANO1, Homo sapiens, UniProt Q5XXA6, del476-501/R541A) | inside-out patch clamp | 30 µM, membrane voltage 120 mV | 1 |
| Anoctamin-1 (ANO1, Homo sapiens, UniProt Q5XXA6, del476-501/E649A) | inhibitor, inside-out patch clamp | 30 µM, E623A mutant at -100 mV | -0.596 |
| Anoctamin-1 (ANO1, Homo sapiens, UniProt Q5XXA6, del476-501) | whole-cell voltage clamp | 1 µM, membrane voltage 0 mV, with: 4 µM Ca2+ (saturating) | -0.0021 |
| ANO1 del476-501/K629A | inside-out patch clamp | 30 µM, membrane voltage 100 mV | 0.754 |
| ANO1 del476-501/E659A | inside-out patch clamp | 30 µM, membrane voltage -20 mV | -0.185 |

Set 2
Species: human
Sample: microsomes or S9
Concentration: 2 µM
Time: 0.5 h
| Compound | remaining compound [%] |
| --- | --- |
| CC(C)N(CCNc1ncnc2nc[nH]c12)C(C)C | 57 |
| COCSc1c(C(O)(CF)c2cnn(C)c2SCOC)cnn1C | 65.6 |
| Cc1c(NC(=O)CCC(=O)N(c2ccccc2)c2ccccc2)c(=O)n(-c2ccccc2)n1C | 49.2 |
| Nc1ccc(F)cc1-c1cc(Cl)cc(Cl)c1 | 16.2 |
| CCOC(=O)N1CCN(C(=O)c2ccc(NCCc3ccc(Cl)cc3)c(S(=O)(=O)Nc3ccc(OCC)cc3)c2)CC1 | 2.67 |
| c1ccc2c(c1)OCC(c1csc(C3COc4ccccc4O3)n1)O2 (stereo not shown) | 78 |
| O=C(O)CC1CCC(c2ccc(-c3ccc(C(=O)NCCC(=O)Nc4nc(-c5cc(F)c(F)cc5F)cs4)cn3)cc2)CC1 (stereo not shown) | 72.8 |
| O=C(Cn1ncc2ccccc2c1=O)c1ccc(Cl)cc1 | 27.4 |

Set 3
SMILES: N=C(N)NC(=O)c1cnn(-c2cccc3ncccc23)c1C1CC1
Effect on: β-arrestin recruitment
Action: agonist
Technique: PRESTO-Tango
Concentration: 10 µM
Baseline: untreated
| target | fold over basal |
| --- | --- |
| CCR7 (Homo sapiens, UniProt P32248) | 1.12 |
| G-protein coupled receptor 62 (GPR62, Homo sapiens, UniProt Q9BZJ7) | 0.99 |
| TACR2 (Homo sapiens, UniProt P21452) | 0.84 fold |
| Adhesion G-protein coupled receptor G5 (ADGRG5, Homo sapiens, UniProt Q8IZF4) | 0.87 |
| VIPR1 (Homo sapiens, UniProt P32241) | 1.25 fold |
| Probable G-protein coupled receptor 160 (GPR160, Homo sapiens, UniProt Q9UJ42) | 1.01 |
| G-protein coupled receptor 15 (Homo sapiens, UniProt P49685) | 1.13 |
| GPBAR1 (Homo sapiens, UniProt Q8TDU6) | 1.05 fold |

Further values, each from its own experiment
| Compound | target | test | conditions | endpoint | value |
| --- | --- | --- | --- | --- | --- |
| O=C1c2ccccc2-c2n[nH]c3cccc1c23 | Leukocyte tyrosine kinase receptor (LTK, Homo sapiens, UniProt P29376) | enzyme activity, inhibitor, radiometric | 0.5 µM | remaining activity | 77.8% |

For quick reference, copied from above (set 2):
| Compound | remaining compound [%] |
| --- | --- |
| Cc1c(NC(=O)CCC(=O)N(c2ccccc2)c2ccccc2)c(=O)n(-c2ccccc2)n1C | 49.2 |
| Nc1ccc(F)cc1-c1cc(Cl)cc(Cl)c1 | 16.2 |
